Measurements from different studies.
Each line is one published result; not all experiments were run side by side. Several values in a cell are separate wells, animals, samples, runs or records. ± marks the error that the study gave.
Palmitoyl-protein thioesterase 1: Palmitoyl-protein thioesterase 1 (Homo sapiens, UniProt P50897)
UniProt P50897, sequence (whole entry, looked up): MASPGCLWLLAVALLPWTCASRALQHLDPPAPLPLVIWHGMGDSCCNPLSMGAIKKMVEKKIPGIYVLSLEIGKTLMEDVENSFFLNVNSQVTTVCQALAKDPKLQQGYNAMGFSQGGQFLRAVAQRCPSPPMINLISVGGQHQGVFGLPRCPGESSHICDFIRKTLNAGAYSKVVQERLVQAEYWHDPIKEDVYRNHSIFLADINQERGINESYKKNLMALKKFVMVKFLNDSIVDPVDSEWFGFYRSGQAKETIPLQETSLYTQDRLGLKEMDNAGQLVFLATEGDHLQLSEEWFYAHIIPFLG
HTR1E: 5-hydroxytryptamine receptor 1E (HTR1E, Homo sapiens, UniProt P28566)
UniProt P28566, sequence (whole entry, looked up): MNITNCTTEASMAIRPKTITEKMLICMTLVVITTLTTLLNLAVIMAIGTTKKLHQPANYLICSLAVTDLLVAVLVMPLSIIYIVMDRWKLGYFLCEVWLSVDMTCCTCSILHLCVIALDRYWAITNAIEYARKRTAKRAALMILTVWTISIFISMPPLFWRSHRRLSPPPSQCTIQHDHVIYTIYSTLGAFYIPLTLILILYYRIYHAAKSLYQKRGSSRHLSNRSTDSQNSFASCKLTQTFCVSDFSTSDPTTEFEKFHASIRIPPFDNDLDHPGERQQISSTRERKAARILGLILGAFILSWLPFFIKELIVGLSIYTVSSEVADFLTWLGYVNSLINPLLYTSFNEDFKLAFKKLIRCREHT
Luciferin 4-monooxygenase: Luciferin 4-monooxygenase (Photinus pyralis, UniProt P08659)
DRD1: D(1A) dopamine receptor (DRD1, Homo sapiens, UniProt P21728)
UniProt P21728, sequence (whole entry, looked up): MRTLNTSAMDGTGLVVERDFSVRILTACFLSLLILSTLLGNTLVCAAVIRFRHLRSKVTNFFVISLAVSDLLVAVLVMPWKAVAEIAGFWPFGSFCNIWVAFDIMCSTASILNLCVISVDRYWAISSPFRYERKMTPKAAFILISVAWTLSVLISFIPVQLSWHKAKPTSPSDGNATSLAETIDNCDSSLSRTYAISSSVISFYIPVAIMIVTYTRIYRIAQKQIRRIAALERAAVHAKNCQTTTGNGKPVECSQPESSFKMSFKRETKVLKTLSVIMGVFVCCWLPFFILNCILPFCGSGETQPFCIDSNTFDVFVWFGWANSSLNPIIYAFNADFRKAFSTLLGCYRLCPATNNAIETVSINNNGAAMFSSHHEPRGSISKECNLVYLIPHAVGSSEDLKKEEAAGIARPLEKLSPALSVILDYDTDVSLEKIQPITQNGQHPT
UniProt P49760, sequence (whole entry, looked up): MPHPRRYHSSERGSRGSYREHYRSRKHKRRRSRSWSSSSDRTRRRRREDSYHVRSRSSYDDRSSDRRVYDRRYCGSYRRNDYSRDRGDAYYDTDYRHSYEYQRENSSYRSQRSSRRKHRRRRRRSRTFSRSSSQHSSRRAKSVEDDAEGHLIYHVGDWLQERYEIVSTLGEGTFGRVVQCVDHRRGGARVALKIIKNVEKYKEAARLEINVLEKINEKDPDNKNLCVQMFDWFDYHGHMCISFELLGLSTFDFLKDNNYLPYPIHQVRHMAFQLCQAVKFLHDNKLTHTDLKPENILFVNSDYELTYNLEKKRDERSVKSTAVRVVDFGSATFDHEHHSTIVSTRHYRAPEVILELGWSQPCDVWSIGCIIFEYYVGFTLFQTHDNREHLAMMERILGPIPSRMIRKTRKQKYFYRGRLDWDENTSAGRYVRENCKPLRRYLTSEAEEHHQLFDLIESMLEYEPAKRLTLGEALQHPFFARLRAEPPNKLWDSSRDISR
UniProt P09874, sequence (whole entry, looked up): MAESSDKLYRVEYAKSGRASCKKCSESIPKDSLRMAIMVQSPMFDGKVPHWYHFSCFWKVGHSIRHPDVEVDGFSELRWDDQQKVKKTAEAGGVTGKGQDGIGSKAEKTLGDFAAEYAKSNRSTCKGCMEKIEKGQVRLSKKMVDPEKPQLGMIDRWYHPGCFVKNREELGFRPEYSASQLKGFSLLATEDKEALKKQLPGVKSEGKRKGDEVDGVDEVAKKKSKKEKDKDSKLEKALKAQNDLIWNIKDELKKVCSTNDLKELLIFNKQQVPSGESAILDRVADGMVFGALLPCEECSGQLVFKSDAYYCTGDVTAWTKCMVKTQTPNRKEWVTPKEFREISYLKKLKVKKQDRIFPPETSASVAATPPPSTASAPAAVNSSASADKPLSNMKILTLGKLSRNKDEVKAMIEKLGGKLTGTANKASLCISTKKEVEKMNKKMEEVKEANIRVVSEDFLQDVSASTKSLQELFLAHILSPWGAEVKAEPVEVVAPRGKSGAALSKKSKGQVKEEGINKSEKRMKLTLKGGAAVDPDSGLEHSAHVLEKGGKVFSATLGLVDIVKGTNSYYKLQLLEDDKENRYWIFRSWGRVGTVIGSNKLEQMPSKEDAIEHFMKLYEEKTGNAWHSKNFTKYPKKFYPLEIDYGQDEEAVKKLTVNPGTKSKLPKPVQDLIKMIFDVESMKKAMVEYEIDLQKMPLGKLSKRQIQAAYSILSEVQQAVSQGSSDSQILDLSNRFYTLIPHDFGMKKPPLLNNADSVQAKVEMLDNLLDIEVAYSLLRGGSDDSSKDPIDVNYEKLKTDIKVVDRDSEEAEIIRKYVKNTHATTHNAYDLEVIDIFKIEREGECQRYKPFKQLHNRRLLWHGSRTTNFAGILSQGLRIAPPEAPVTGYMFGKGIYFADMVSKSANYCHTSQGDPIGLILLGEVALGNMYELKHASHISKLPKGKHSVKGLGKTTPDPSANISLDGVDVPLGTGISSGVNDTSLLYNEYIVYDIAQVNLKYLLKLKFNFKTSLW
UniProt P08253, sequence (whole entry, looked up): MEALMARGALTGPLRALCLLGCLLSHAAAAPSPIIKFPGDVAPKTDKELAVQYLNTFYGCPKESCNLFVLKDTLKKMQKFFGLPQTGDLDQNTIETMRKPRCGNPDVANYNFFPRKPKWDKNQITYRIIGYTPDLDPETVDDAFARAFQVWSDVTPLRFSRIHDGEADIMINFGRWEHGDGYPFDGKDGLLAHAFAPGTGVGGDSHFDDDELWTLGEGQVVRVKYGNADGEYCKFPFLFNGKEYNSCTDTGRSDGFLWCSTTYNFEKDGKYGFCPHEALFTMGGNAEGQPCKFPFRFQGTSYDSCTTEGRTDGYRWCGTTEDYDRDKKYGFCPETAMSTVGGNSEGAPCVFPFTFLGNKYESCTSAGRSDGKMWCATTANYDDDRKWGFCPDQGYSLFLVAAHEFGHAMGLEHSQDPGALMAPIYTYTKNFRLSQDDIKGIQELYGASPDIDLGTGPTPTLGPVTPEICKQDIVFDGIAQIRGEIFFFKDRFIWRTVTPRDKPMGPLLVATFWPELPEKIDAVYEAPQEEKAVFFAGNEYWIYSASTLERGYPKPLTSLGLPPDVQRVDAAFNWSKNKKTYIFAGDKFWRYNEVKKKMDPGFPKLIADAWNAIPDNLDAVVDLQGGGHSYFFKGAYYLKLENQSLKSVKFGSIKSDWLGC
UniProt P07237, sequence (whole entry, looked up): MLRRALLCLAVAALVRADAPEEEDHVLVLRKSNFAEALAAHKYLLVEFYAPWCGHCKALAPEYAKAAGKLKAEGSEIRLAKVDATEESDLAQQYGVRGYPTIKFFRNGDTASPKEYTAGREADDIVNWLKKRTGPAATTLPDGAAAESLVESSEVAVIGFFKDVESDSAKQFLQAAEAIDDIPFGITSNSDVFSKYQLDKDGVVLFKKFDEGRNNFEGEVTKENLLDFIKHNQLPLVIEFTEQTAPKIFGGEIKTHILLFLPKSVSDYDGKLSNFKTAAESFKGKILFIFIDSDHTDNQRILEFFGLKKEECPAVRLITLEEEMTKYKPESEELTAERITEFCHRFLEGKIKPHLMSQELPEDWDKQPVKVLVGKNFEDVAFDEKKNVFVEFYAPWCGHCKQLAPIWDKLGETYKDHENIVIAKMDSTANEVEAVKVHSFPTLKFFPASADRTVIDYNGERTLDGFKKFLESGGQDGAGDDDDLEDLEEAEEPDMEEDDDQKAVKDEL

Cn1nnc2c(C(N)=O)ncn2c1=O  inhibition (Palmitoyl-protein thioesterase 1; Spectrum Collection screen; concentration not given, added: substrate 20 µM): 77.3%
CC(=O)c1c(C)cc2cc(O)cc(O[C@@H]3O[C@H](CO)[C@@H](O)[C@H](O)[C@H]3O)c2c1O  cell viability (HK-2 co-cultured with HepaRG; MTT; 133.33 µM, 48 h; baseline: untreated control): 96 ± 5.99%
Cc1cccc(N(O)N=Nc2ccc(S(=O)(=O)Nc3cc(C)on3)cc2)c1  inhibition (α-glucosidase, rat intestine; enzyme activity; 120 µg/mL, added: 4-nitrophenyl α-D-glucopyranoside): 22.5 ± 1.38%
Cc1ccc(OC[C@@H]2CN(CCN3CCc4ccccc43)CCO2)cn1  inhibition (HTR1E; radioligand binding; concentration not given, added: [3H]5-HT): -11.3%
Nc1ccc(/N=N/c2ccccc2)c(N)n1  inhibition (Palmitoyl-protein thioesterase 1; Spectrum Collection screen; concentration not given, added: substrate 20 µM): 60.8%
Cc1noc(NS(=O)(=O)c2ccc(N=NN(C)O)cc2)c1C  inhibition (α-glucosidase, rat intestine; enzyme activity; 240 µg/mL, added: 4-nitrophenyl α-D-glucopyranoside): 43.25 ± 0.01%
O=C(OC[C@H]1O[C@@H](OC(=O)c2cc(O)c(O)c(O)c2)[C@H](OC(=O)c2cc(O)c(O)c(O)c2)[C@@H](OC(=O)c2cc(O)c(O)c(O)c2)[C@@H]1OC(=O)c1cc(O)c(O)c(O)c1)c1cc(O)c(O)c(O)c1  inhibition (Protein disulfide-isomerase, a' domain (P4HB, Homo sapiens, UniProt P07237); di-eosin-GSSG reductase activity; isolated a' domain; 20 µM): inhibited
NC/C(=C\F)COc1cccc(Cn2c(=S)[nH]c(=O)c3[nH]cnc32)c1  inhibition (rat kainate receptor; radioligand binding; 10 µM): < 50%
CC(C)[C@H](NC(=O)[C@H](Cc1ccc(O)cc1)NC(=O)[C@H](Cc1ccc(O)cc1)NC(=O)[C@@H]1CCCN1C(=O)[C@H](CCC(=O)O)NC(=O)[C@H](CCC(=O)O)NC(=O)[C@H](Cc1c[nH]c2ccccc12)NC(=O)[C@@H]1CCCN1C(=O)[C@@H](NC(=O)[C@H](CCC(N)=O)NC(=O)c1ccc2c(c1)C(=O)OC21c2ccc(O)cc2Oc2cc(O)ccc21)C(C)C)C(=O)N[C@H](C(=O)N[C@@H](CCCCN)C(=O)N[C@@H](CCCCN)C(=O)N[C@@H](CO)C(=O)N[C@@H](CO)C(=O)NCC(=O)NCC(N)=O)C(C)C  plasma concentration (human, plasma; intravenous infusion, 189.6 mg, 2 h): 254 ng/mL
CC[C@@H]1[C@H](F)C(=O)N[C@@H]1COc1nccc2cc(C(N)=O)c(OC)cc12  inhibition (CLK2 (Homo sapiens, UniProt P49760); ATP-site probe binding, ActivX profiling; THP-1 cell lysate; 0.2 mM, Lys2 site): 38.8%
COc1ccc(C2=NC3(CCN(C(C)=O)CC3)NC(c3ccccc3O)C2)cc1 (centres unmarked)  inhibition (Luciferin 4-monooxygenase; luciferase luminescence, inhibitor; cell-free; 50 µM, counter-screen): 10.1%
Cc1cccc(N(O)N=Nc2ccc(S(=O)(=O)Nc3onc(C)c3C)cc2)c1  inhibition (α-glucosidase, rat intestine; enzyme activity; 120 µg/mL, added: 4-nitrophenyl α-D-glucopyranoside): 22.5 ± 1.54%
CCCCOc1c(O)cc(Br)c2c1CN1CCc3cc(OCC(F)F)c(O)cc3[C@@H]1C2  inhibition (DRD1; cAMP level, antagonist, TR-FRET; U2OS expressing human D1R; concentration not given, added: dopamine 10 nM): 95 ± 1%
CC(NC(=O)c1cccc(-c2ccc(N3CCCCCC3)nc2)c1)c1cccnc1 (centres unmarked)  inhibition (Luciferin 4-monooxygenase; luciferase luminescence, inhibitor; cell-free; 50 µM, counter-screen): -2.61%
c1cncc(OC[C@@H]2CN(CCN3CCc4ccccc43)CCO2)c1  inhibition (DRD1; radioligand binding; concentration not given, added: [3H]SCH23390): 18.7%
CC(=O)N[C@H]1[C@@H](Oc2ccc([N+](=O)[O-])cc2)O[C@H](CO)[C@H](O)[C@@H]1O[C@@H]1O[C@H](CO)[C@H](O)[C@H](O)[C@H]1O  inhibition (Adhesin FmlH, lectin domain (Escherichia coli, UniProt Q1RBS0); binding to desialylated mucin, ELISA competition; UPEC UTI89; 100 µM): 15.3 ± 3.1%
Cc1noc(NS(=O)(=O)c2ccc(N=NN(O)c3ccccc3)cc2)c1C  inhibition (α-glucosidase, rat intestine; enzyme activity; 20 µg/mL, added: 4-nitrophenyl α-D-glucopyranoside): 5 ± 0.72%
COc1cc(C(=O)NS(=O)(=O)c2ccccc2C)ccc1Cc1cn(C)c2ccc(NC(=O)OC3CCCC3)cc12  inhibition (Volume-regulated anion channel subunit LRRC8C, part LRRC8A IL1 chimera (LRRC8C, Homo sapiens, UniProt Q8TDW0, Y126F); ion current, inhibitor, whole-cell patch clamp; HCT LRRC8-/- cells; 1 µM, +100 mV): 64.7% and 38.1% and 50.9% and 63.4% and 38.2% and 40.7% and 64.2%
COc1ccc(S(=O)(=O)N(CC(=O)NO)CC(C)C)cc1  inhibition (MMP2 (Homo sapiens, UniProt P08253); fluorometric; 0.1 ng/mL): 49%
Cc1cc(NS(=O)(=O)c2ccc(N=NN(C)O)cc2)no1  inhibition (α-glucosidase, rat intestine; enzyme activity; 240 µg/mL, added: 4-nitrophenyl α-D-glucopyranoside): 60%
O=C(COP(=O)(O)O)[C@@H](O)[C@H](O)[C@H](O)COP(=O)(O)O  thermal stability ratio (PARP1 (Homo sapiens, UniProt P09874); thermal proteome profiling; HepG2 cell lysate; concentration not given, 57 over 37 °C, mean; baseline: compound over control): 0.533
COc1c(O[C@@H]2O[C@H](CO)[C@@H](O)[C@H](O)[C@H]2O)c(C)cc2c1C(=O)c1c(O)cccc1C2=O  cell viability (HK-2 co-cultured with HepaRG; MTT; 33.33 µM, 48 h; baseline: untreated control): 92.7 ± 1.47%
Cc1ncccc1OC[C@H]1CN(CCN2CCc3ccccc32)CCO1  inhibition (HTR1E; radioligand binding; concentration not given, added: [3H]5-HT): -20%

Repeated from above:
NC/C(=C\F)COc1cccc(Cn2c(=S)[nH]c(=O)c3[nH]cnc32)c1  inhibition (rat kainate receptor; radioligand binding; 10 µM): < 50%
CC(C)[C@H](NC(=O)[C@H](Cc1ccc(O)cc1)NC(=O)[C@H](Cc1ccc(O)cc1)NC(=O)[C@@H]1CCCN1C(=O)[C@H](CCC(=O)O)NC(=O)[C@H](CCC(=O)O)NC(=O)[C@H](Cc1c[nH]c2ccccc12)NC(=O)[C@@H]1CCCN1C(=O)[C@@H](NC(=O)[C@H](CCC(N)=O)NC(=O)c1ccc2c(c1)C(=O)OC21c2ccc(O)cc2Oc2cc(O)ccc21)C(C)C)C(=O)N[C@H](C(=O)N[C@@H](CCCCN)C(=O)N[C@@H](CCCCN)C(=O)N[C@@H](CO)C(=O)N[C@@H](CO)C(=O)NCC(=O)NCC(N)=O)C(C)C  plasma concentration (human, plasma; intravenous infusion, 189.6 mg, 2 h): 254 ng/mL
